Published values pooled from the literature.
Lines come from different studies, so protocols differ. ± gives the spread as reported.
Target: Acetylcholinesterase (ACHE, Homo sapiens, UniProt P22303)
Chain of UniProt P22303 (whole entry, looked up): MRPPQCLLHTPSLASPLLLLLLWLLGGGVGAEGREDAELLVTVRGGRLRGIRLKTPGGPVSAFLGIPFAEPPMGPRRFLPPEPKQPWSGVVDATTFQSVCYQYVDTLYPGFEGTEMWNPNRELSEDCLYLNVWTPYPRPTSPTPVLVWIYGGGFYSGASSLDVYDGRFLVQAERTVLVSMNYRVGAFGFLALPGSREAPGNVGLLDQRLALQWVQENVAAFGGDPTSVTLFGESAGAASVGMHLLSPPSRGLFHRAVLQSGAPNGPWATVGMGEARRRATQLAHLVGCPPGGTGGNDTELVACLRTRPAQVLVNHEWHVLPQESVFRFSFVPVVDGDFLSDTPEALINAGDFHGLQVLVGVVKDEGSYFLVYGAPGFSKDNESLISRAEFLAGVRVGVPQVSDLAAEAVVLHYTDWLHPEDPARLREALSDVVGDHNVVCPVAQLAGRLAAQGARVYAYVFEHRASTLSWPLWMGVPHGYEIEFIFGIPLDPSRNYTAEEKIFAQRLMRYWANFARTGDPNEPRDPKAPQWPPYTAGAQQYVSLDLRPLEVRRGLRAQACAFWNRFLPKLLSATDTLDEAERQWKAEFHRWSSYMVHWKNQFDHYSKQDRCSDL

CC(C)c1cc2c(c(O)c1O)[C@@]13CCCC(C)(C)[C@@H]1[C@H](OC3=O)[C@H]2O
IC50 (enzyme activity, inhibitor, colorimetric; added: acetylthiocholine): 0.73 ± 0.01 nM

CCOP(=O)(OCC)SC[S+]([O-])CC (stereo not shown)
IC50 (enzyme activity, inhibitor): 500 ± 100 nM

COc1ccc(S(=O)(=O)Oc2ccc3c(c2)Oc2nc4c(c(N)c2C3c2cccc(OC)c2)CCCC4)cc1 (stereo not shown)
IC50 (enzyme activity, inhibitor): 302 nM

CCOP(=S)(OCC)SCS(=O)(=O)CC
IC50 (enzyme activity, inhibitor): 700 ± 100 nM

Nc1c2c(nc3c1C(c1cccc(Br)c1)c1ccc(OS(=O)(=O)c4ccc(F)cc4)cc1O3)CCCC2 (stereo not shown)
IC50 (enzyme activity, inhibitor): 3880 nM

COc1cc(Nc2ncc(F)c(Nc3ccc4c(n3)NC(=O)C(C)(C)O4)n2)cc(OC)c1OC
IC50: > 10000 nM

CN1CC[C@@]2(C)c3cc(OC(=O)Nc4ccccc4)ccc3N(C)[C@@H]12
IC50 (enzyme activity, inhibitor): 18.6 ± 0.3 nM

COc1ccccc1C1c2ccc(OCC(=O)c3ccc(Cl)cc3)cc2Oc2nc3c(c(N)c21)CCCC3 (stereo not shown)
IC50 (enzyme activity, inhibitor): 758 nM

CCOP(=O)(OCC)SCSCC
IC50 (enzyme activity, inhibitor): 1300 ± 100 nM

CC(=O)[C@H]1CC[C@H]2[C@@H]3CCC4=CC(=O)CC[C@]4(C)[C@H]3CC[C@]12C
IC50 (enzyme activity, inhibitor): 12500 nM

Excerpt of the above:
COc1ccc(S(=O)(=O)Oc2ccc3c(c2)Oc2nc4c(c(N)c2C3c2cccc(OC)c2)CCCC4)cc1 (stereo not shown)
IC50 (enzyme activity, inhibitor): 302 nM
